Measured values collected from several papers.
A part holds a random share of what one study measured.

Study 1 — method: aptamer microarray, sandwich; form: DNA with 2'F-ANA; matrix: in vitro; tested at: 200 nM; together with: Cy3 exosite-II aptamer, 400 nM; direction: higher = stronger binding; oligonucleotide: GGTTGGTGTGGTTGG
Target: Prothrombin, mature alpha-thrombin (F2, Homo sapiens, UniProt P00734)
Setting: whole 15-mer aptamer, many near background
Modification | mean fluorescence intensity
2'F-ANA at 1 2 5 10 12 13 15 | 143 a.u.
2'F-ANA at 2 3 6 12 13 | 922 a.u.
2'F-ANA at 1 2 3 4 7 9 12 13 | 204 a.u.
2'F-ANA at 5 6 8 11 12 14 | 52.5 a.u.
2'F-ANA at 1 9 11 12 13 15 | 235 a.u.
2'F-ANA at 2 5 7 9 10 13 15 | 47.1 a.u.
2'F-ANA at 1 2 3 4 6 7 8 10 11 13 14 | 105 a.u.
2'F-ANA at 1 2 5 7 8 9 13 14 | 47.4 a.u.
2'F-ANA at 2 3 6 8 9 11 13 15 | 526 a.u.
2'F-ANA at 1 2 4 6 9 10 11 12 14 | 94.6 a.u.
2'F-ANA at 1 2 3 11 12 | 372 a.u.
2'F-ANA at 2 7 8 13 15 | 420 a.u.
2'F-ANA at 1 4 6 10 12 14 15 | 49.1 a.u.
2'F-ANA at 1 4 7 9 10 13 15 | 47.4 a.u.
2'F-ANA at 2 4 6 8 9 10 13 15 | 110 a.u.
2'F-ANA at 1 2 8 9 10 13 14 | 48.7 a.u.
2'F-ANA at 3 7 8 9 10 11 12 13 14 15 | 390 a.u.
2'F-ANA at 5 6 7 8 9 11 13 14 15 | 46 a.u.
2'F-ANA at 1 2 3 4 7 8 11 12 13 14 15 | 81.8 a.u.
2'F-ANA at 2 3 4 6 10 11 12 13 15 | 208 a.u.
2'F-ANA at 3 4 7 10 12 13 | 332 a.u.
2'F-ANA at 1 2 4 6 8 10 11 12 15 | 70.8 a.u.
2'F-ANA at 1 2 4 5 7 9 11 | 67.1 a.u.
2'F-ANA at 1 4 5 9 12 13 14 | 47.2 a.u.

Study 2 — method: protein binding microarray; form: double-stranded DNA, one strand shown; matrix: in vitro; tested at: not given; baseline: not given; direction: higher = stronger binding
Target: Histone acetyltransferase KAT6A, both winged helices, GST fusion (KAT6A, Homo sapiens, UniProt Q92794, residues 1-181)
Setting: 8-mer, flanks averaged, mean of 2 arrays, mostly near background
Construct (chain): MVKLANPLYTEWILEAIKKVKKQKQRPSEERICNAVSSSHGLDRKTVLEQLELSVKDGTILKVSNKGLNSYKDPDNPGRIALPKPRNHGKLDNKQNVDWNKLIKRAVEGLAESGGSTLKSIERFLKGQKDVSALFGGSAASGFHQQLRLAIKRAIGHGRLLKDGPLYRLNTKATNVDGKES
Oligonucleotide | E-score
AAAGTTTC | -0.0361
AAGGTATT | 0.05
ATATGTAC | 0.0563
AGTCTTAC | -0.0265
ACTACTCC | 0.136
ATAATTCA | 0.0188
AGGCAGAG | -0.186
CATATCTC | -0.125
GAGTTTCC | 0.0765
CACCTTTC | -0.146
CCATACAG | -0.183
AACTCAGA | -0.176
AGCTTGAA | -0.0861
AGATGCCC | -0.105
ATGCACAG | -0.0459
TCCAATAA | 0.104
CCGTCTGA | 0.197
GCATGACC | -0.00676
CAGCAAAA | -0.0413
GGACGCAA | 0.0559
AGCCTTAT | -0.183
AGATCGCG | 0.243
GCTCTCCA | -0.295
AACTTTCG | -0.0727
GCCTAAGC | -0.00775

Study 3 — method: universal PBM; form: double-stranded DNA, one strand shown; matrix: in vitro; tested at: not given; direction: higher = stronger binding
Target: Sal-like protein 4, full length isoform B (SALL4, Homo sapiens, UniProt Q9UJQ4-2, residues 1-616)
Setting: 8-mer, flanks averaged, mean of replicates
Oligonucleotide | E-score
AGAGTGCA | -0.0863
CGTTCGCA | -0.0586
AAATGAAA | 0.318
CTGGAAGC | -0.292
ATTGGCAC | 0.0331
GATACAGA | 0.0749
CAGAATTC | 0.185
GCTGAACC | -0.25
CAATATGC | 0.162
CCGTGTAG | -0.041
CAGGCAAC | -0.185
CTTATTGA | 0.262
AGAAACAT | 0.302
GCGTTCCA | -0.146
AGTATTGC | 0.105
TGACAGCA | 0.00971
CCATCACA | -0.0272

Study 4 — method: protein-binding microarray; form: double-stranded DNA, one strand shown; matrix: in vitro; tested at: 2540 nM top; setting: 60-bp whole probe; together with: salmon DNA 0.4 mg/ml; baseline: random background probes; direction: higher = stronger binding; all sequences stand within: GCCTAGCAC … GTCTTGATTCGCTTGACGCTGCTG
Target: Interferon regulatory factor 3, full length, phosphomimetic (IRF3, Homo sapiens, UniProt Q14653, residues 1-427, S386D/S396D/S398D/S402D/T404D/S405D)
Chain of UniProt Q14653 (whole entry, unmodified, looked up): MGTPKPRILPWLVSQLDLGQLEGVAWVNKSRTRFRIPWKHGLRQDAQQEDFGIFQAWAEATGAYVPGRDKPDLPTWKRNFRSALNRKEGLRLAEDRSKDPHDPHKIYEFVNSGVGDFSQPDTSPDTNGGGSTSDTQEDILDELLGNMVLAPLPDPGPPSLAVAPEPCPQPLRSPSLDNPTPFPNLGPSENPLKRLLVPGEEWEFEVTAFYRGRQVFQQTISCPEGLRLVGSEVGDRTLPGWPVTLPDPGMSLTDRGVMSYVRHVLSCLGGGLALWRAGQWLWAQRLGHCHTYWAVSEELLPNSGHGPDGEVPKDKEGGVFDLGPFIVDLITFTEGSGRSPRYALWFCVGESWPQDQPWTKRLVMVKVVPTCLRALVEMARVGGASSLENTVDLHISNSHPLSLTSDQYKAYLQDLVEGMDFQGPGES
Oligonucleotide | fitted relative affinity
TGAGGTTCCCTTTTCCTTTAGTGCTAG | 6.48 z-score
CTAGGACTGCTTATCCTTTAGTGCTAG | -0.104 z-score
GCACTGTGCCTGCTGCCCTTGTGCTAG | -0.468 z-score
TTAGGTATCGGTCTCGGTTAGTGCTAG | 4.43 z-score
GACGGAATCGGGTTTCGGGACGTGCTA | 1.6 z-score
TCACATTCACCTGTCGTACTGTGCTAG | 0.83 z-score
TTAGATAGCGGGTTTCGATTAGTGCTA | 1.51 z-score
GCAAAAATGATTGGTTGAACGTGCTAG | -0.274 z-score
TCATTTATGCACTCTTTAACTGTGCTA | 1.35 z-score
TCACTGATCCATTTTGGACTGTGCTAG | 1.86 z-score
TTAGGTTTCGGTCTCGGCTAGTGCTAG | 8.65 z-score
TCAATCTTAGATATTAAACTGTGCTAG | 0.671 z-score
TCAGATCACCGATTTCCTACTGTGCTA | 1.41 z-score
GACGATCTCACTTTCGAGACGTGCTAG | 2.02 z-score
GACATCCCCAGTCTCATATTGTGCTAG | 0.473 z-score
TTAGGTTTCGGGTTCGGTTAGTGCTAG | 5.46 z-score
GACGGTCTCGGTTTCGGCACGTGCTAG | 3.3 z-score
TCAATTTTTTTTTTCTAACTGTGCTAG | 0.982 z-score
TGGAACTTAAAAGAAAGATAGTGCTAG | -0.0999 z-score

A few entries again (study 1):
Modification | mean fluorescence intensity
2'F-ANA at 1 4 7 9 10 13 15 | 47.4 a.u.
2'F-ANA at 1 2 5 7 8 9 13 14 | 47.4 a.u.
2'F-ANA at 5 6 8 11 12 14 | 52.5 a.u.
2'F-ANA at 3 4 7 10 12 13 | 332 a.u.
2'F-ANA at 1 2 8 9 10 13 14 | 48.7 a.u.
2'F-ANA at 2 4 6 8 9 10 13 15 | 110 a.u.
2'F-ANA at 2 3 4 6 10 11 12 13 15 | 208 a.u.
2'F-ANA at 2 5 7 9 10 13 15 | 47.1 a.u.
2'F-ANA at 1 2 3 4 7 9 12 13 | 204 a.u.
